# Values quoted from earlier work that unrelated publications cite.
# Compare with care: the assays were run in different laboratories. Numbers after ± are the reported error.
Compound,cell line,assay,conditions,scale,endpoint,result
C#Cc1cccc(Nc2ncnc3cc(OCCOC)c(OCCOC)cc23)c1,hiPSC-derived cardiomyocytes,contractility,"concentration not given, 72 h, at effective concentration",reference: baseline,log2 fold change,0.51
CC(C)C[C@H](NC(=O)[C@H](Cc1ccccc1)NC(=O)c1cnccn1)B(O)O,RPMI-8226,cytotoxicity,,,EC50,0.03 µM
Cc1nc(Nc2ncc(C(=O)Nc3c(C)cccc3Cl)s2)cc(N2CCN(CCO)CC2)n1,hiPSC-derived cardiomyocytes,,"72 h, tested 0 to 100 µM",,beating cessation concentration,3.7 µM
COc1cc(/C=C2\CCC/C(=C\c3ccc([N+](=O)[O-])cc3)C2=O)cc(OC)c1OC,"HGF, HPC, HPLF normal cells",,,,CC50,354 µM
Cc1ccc(OCC(=O)N(Cc2cccs2)c2ccn[nH]2)cc1,human peripheral blood lymphocytes,,"up to 270 µg/mL, with and without S9",,chromosome aberration result,negative
C[C@@H](Oc1cc(-c2cnn(C3CCNCC3)c2)cnc1N)c1c(Cl)ccc(F)c1Cl,hiPSC-derived cardiomyocytes,,"72 h, tested 0 to 100 µM",,beating cessation concentration,11 µM
COc1cc2c3c(n(CCCn4ccnc4)c(=O)c2cc1OC)-c1cc2c(cc1C3=O)OCO2,NCI-60 panel (60 lines),,mean graph midpoint,,GI50,79 ± 23 nM
COc1cccc2c1C(=O)c1c(O)c3c(c(O)c1C2=O)C[C@@](O)(C(=O)CO)C[C@@H]3O[C@H]1C[C@H](N)[C@H](O)[C@H](C)O1,human gingival fibroblasts,,,,CC50,> 3.9 µM
COc1ccc(/C=C2\CCC/C(=C\c3ccc([N+](=O)[O-])cc3)C2=O)cc1,"HGF, HPC, HPLF normal cells",,,,CC50,> 400 µM
COC(=O)c1ccc2c3c(n(CCCn4ccnc4)c(=O)c2c1)-c1ccccc1C3=O,NCI-60 panel mean,cell growth,,,GI50,5370 nM
O=C1C(Nc2ccc(-c3ccccc3)cc2)=CC(=O)c2ncncc21,MIA PaCa-2,cytotoxicity,,,IC50,900 ± 200 nM
N=C(N)c1ccc(OCCCCCOc2ccc(C(=N)N)cc2)cc1,A549,cytotoxicity,,,IC50,24000 nM
O=C1c2ccccc2-c2c1c1ccc([N+](=O)[O-])cc1c(=O)n2CCCn1ccnc1,colon HCT-116,cell growth,,,GI50,274 nM
CCN(CC)CCNC(=O)c1c(C)[nH]c(/C=C2\C(=O)Nc3ccc(F)cc32)c1C,hiPSC-derived cardiomyocytes,,"72 h, tested 0 to 100 µM",,beating cessation concentration,3.7 µM
Cc1c(Cl)ccc2c1NC(=O)[C@]21N[C@@H](Cc2ccccc2)[C@H]2C(=O)N(c3ccc(F)cc3)C(=O)[C@H]21,NIH 3T3,cytotoxicity,,,EC50,≥ 160 µM
CCCS(=O)(=O)Nc1ccc(F)c(C(=O)c2c[nH]c3ncc(-c4ccc(Cl)cc4)cc23)c1F,hiPSC-derived cardiomyocytes,contractility,"concentration not given, 72 h, at effective concentration",reference: baseline,log2 fold change,0.34
CCCCCCCCCCCCCCCCCO[C@@H]1O[C@H](CO)[C@@H](O)[C@H](O)[C@H]1O,B16-F10,"cytotoxicity, MTT",24 h,,EC50,38 µM
O=C1c2ccccc2-c2c1c1ccc([N+](=O)[O-])cc1c(=O)n2C[C@H](O)CO,ovarian OVCAR-3,cell growth,,,GI50,309 nM
COc1ccc2occ(/C=C/c3cc(OC)c(OC)c(OC)c3)c(=O)c2c1,Ca9-22,,,,CC50,13 ± 6.1 µM
CNC(=O)c1ccccc1Sc1ccc2c(/C=C/c3ccccn3)n[nH]c2c1,hiPSC-derived cardiomyocytes,contractility,72 h,,lowest effective concentration,71.8 µM
O=C1c2ccccc2-c2c1c1ccc([N+](=O)[O-])cc1c(=O)n2CCCN1CCOCC1,CNS SF-539,cell growth,,,GI50,95 nM
COc1ccc2occ(/C=C/c3ccc(O)cc3)c(=O)c2c1,human gingival fibroblasts,,,,CC50,138 ± 116 µM
CCCCCCCCCCCCCCCCCCO[C@@H]1O[C@H](CO)[C@@H](O)[C@H](O)[C@H]1O,B16-F10,"cytotoxicity, MTT",24 h,,EC50,32 µM
COc1ccc(/C=C/c2coc3ccc(OC)cc3c2=O)cc1,human gingival fibroblasts,,,,CC50,258 ± 126 µM
COc1ccc(N(C)c2nc(C)nc3c2CC(C)C3)cc1 (racemic),SK-OV-3 MDR1-M6/6 Pgp-expressing,cell growth,,,IC50,44.4 ± 3.2 nM
COc1cc(Nc2c(C#N)cnc3cc(OCCCN4CCN(C)CC4)c(OC)cc23)c(Cl)cc1Cl,hiPSC-derived cardiomyocytes,,"72 h, tested 0 to 100 µM",,beating cessation concentration,33 µM
O=c1[nH]cc(F)c(=O)[nH]1,Ca9-22,,,,CC50,18 ± 7.6 µM

# For quick reference, copied from above:
Compound,cell line,assay,conditions,scale,endpoint,result
COc1cccc2c1C(=O)c1c(O)c3c(c(O)c1C2=O)C[C@@](O)(C(=O)CO)C[C@@H]3O[C@H]1C[C@H](N)[C@H](O)[C@H](C)O1,human gingival fibroblasts,,,,CC50,> 3.9 µM
COc1ccc2occ(/C=C/c3ccc(O)cc3)c(=O)c2c1,human gingival fibroblasts,,,,CC50,138 ± 116 µM
